Measurements collected from several papers.
Lines come from different studies, so protocols differ. ± marks the error that the study gave.

SMILES = Cc1cccc(CNC(=O)c2cn(CCNC(=O)c3ccccc3S)c3cc4c(cc3c2=O)OC(F)(F)O4)n1; test system = Sprague-Dawley rat, male, plasma; setting = intravenous, 5 mg/kg of parent compound; Tmax = 0.083 h
SMILES = O=C(O)C1=CO[C@@H](O[C@@H]2O[C@H](CO)[C@@H](O)[C@H](O)[C@H]2O)[C@@H]2C(CO)=CC[C@H]12; test system = Sprague-Dawley rat, internal jugular vein plasma; setting = oral, 500 mg/kg Eu + 217 mg/kg Pc extract, dosed as combined Eu and Pc extracts; Tmax = 2.5 ± 0.87 h
SMILES = Cc1cc(-c2ccc3cc[nH]c(=O)c3c2)ccc1O[C@H]1O[C@H](CO)[C@@H](O)[C@H](O)[C@@H]1O; test system = male Sprague-Dawley rat, plasma; setting = intravenous, 3 mg/kg, group mean; Tmax = 0.083 h
SMILES = O=C1c2ccncc2C(=O)c2c1[nH]c1ccccc21; test system = Sprague-Dawley rat, male, plasma; setting = intravenous, 5 mg/kg; Tmax = 0.08 h
SMILES = CCc1cc(C(=O)NC)c2nccc(N3CCc4c(cc(Cn5ccnc5)cc4-c4cn(C)nc4C(F)(F)F)C3=O)c2c1; test system = Sprague Dawley rat, male, plasma; setting = oral, 100 mg/kg once daily, 7 days; Tmax = 1.8 h
SMILES = CSc1ccccc1C(=O)NCCn1cc(C(=O)NCc2cccc(C)n2)c(=O)c2cc3c(cc21)OC(F)(F)O3; test system = Sprague-Dawley rat, male, whole blood; setting = intramuscular, 10 mg/kg of parent drug; Tmax = 2.08 ± 1.08 h
SMILES = C=CC(=O)N1CCC[C@@H](n2nc(-c3ccc(Oc4ccccc4)cc3)c3c(N)ncnc32)C1; test system = Wistar rat, plasma; setting = oral, dose not given, suspension; Tmax = 2.5 h
SMILES = CN1CCC[C@H](CN2c3ccccc3Sc3ccccc32)C1.Cl; test system = Wistar rat female, liver; setting = oral, 16 mg/kg; Tmax = 0.5 h
SMILES = OCC1=C[C@@H](O)[C@@H]2C=CO[C@@H](O[C@@H]3O[C@H](CO)[C@@H](O)[C@H](O)[C@H]3O)[C@H]12; test system = Sprague-Dawley rat, internal jugular vein plasma; setting = oral, 500 mg/kg Eu + 217 mg/kg Pc extract, dosed as combined Eu and Pc extracts; Tmax = 1 ± 0.87 h

Excerpt of the above:
SMILES = O=C1c2ccncc2C(=O)c2c1[nH]c1ccccc21; test system = Sprague-Dawley rat, male, plasma; setting = intravenous, 5 mg/kg; Tmax = 0.08 h
